Results of several laboratories.
“And” joins repeats or separate records; there may be more than shown. ± marks the error that the study gave.
GLP1R: Glucagon-like peptide 1 receptor (GLP1R, Homo sapiens, UniProt P43220)
T1: ssDNA, aptamer; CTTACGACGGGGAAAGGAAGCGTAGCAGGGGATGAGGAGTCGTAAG
Chain of UniProt Q64663 (whole entry, unmodified, looked up): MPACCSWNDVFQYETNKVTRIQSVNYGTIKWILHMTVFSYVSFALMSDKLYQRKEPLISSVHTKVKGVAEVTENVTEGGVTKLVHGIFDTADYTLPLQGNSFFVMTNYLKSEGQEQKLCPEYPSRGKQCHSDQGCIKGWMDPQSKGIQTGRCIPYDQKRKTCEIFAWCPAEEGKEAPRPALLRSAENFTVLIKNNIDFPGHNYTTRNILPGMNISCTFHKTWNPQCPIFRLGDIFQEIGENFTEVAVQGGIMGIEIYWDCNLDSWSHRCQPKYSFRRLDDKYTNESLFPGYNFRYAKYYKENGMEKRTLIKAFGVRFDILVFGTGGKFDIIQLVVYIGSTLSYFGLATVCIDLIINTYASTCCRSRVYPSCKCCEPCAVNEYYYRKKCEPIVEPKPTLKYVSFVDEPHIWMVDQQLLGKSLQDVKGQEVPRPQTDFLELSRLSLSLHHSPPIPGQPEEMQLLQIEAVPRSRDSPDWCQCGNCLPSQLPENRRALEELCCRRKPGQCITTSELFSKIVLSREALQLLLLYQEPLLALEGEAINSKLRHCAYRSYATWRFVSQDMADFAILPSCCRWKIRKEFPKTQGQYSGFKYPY
Chain of UniProt P23204 (whole entry, unmodified, looked up): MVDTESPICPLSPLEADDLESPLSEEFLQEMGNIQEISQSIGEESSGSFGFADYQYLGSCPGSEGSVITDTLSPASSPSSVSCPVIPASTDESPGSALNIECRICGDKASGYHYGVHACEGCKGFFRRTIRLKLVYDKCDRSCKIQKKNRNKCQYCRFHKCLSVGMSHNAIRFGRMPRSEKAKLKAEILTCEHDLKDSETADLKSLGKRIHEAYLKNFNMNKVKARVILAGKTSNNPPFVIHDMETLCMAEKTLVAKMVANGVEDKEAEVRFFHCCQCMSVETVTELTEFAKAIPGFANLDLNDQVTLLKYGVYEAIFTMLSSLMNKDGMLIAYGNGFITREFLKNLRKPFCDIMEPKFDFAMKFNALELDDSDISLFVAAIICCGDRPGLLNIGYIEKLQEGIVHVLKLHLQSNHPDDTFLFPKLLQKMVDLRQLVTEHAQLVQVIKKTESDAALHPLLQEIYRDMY
Chain of UniProt Q9Y3R4 (whole entry, looked up): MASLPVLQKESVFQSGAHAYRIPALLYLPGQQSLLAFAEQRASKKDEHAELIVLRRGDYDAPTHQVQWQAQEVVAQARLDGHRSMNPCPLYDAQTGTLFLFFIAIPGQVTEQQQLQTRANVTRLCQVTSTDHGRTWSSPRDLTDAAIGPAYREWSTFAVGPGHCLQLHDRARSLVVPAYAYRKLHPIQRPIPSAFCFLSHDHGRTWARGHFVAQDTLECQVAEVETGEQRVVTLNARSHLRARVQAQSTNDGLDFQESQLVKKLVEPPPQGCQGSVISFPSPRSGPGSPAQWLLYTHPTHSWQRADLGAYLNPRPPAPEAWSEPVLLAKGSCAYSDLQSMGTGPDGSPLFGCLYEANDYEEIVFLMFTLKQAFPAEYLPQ
Chain of UniProt P07741 (whole entry, looked up): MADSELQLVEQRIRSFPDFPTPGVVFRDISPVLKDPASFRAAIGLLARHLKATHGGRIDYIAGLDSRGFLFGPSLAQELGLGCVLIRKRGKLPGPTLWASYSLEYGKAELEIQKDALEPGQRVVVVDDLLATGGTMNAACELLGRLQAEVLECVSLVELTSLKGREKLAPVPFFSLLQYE
Chain of UniProt Q62351 (whole entry, looked up): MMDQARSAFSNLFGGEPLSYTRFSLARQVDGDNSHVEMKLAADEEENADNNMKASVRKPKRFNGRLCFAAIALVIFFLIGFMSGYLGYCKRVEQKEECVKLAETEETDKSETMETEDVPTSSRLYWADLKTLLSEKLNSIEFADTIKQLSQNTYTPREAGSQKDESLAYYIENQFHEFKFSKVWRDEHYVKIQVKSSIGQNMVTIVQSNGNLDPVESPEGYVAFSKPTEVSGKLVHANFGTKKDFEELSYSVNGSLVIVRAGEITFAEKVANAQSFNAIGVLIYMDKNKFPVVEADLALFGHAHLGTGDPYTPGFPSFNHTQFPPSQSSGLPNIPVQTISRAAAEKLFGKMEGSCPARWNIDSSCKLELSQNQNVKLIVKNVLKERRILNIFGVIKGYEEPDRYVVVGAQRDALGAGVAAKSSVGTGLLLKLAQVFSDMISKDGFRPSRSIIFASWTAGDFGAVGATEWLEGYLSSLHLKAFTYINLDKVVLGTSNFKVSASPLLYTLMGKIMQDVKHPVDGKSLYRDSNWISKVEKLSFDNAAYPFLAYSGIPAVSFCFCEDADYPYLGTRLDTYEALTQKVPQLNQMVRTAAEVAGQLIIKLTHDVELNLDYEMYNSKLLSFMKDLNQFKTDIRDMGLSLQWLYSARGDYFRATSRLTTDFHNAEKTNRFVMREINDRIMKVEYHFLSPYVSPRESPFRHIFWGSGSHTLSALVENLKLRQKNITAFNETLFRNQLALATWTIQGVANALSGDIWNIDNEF
Chain of UniProt O43704 (whole entry, looked up): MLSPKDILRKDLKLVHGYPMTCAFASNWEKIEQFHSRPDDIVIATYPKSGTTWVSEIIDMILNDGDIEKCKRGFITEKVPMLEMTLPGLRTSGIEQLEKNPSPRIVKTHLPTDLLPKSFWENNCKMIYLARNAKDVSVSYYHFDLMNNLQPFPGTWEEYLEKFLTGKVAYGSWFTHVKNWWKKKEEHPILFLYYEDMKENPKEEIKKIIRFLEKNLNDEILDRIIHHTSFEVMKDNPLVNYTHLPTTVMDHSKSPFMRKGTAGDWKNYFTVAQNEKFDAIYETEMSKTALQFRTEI
Chain of UniProt P02769 (whole entry, looked up): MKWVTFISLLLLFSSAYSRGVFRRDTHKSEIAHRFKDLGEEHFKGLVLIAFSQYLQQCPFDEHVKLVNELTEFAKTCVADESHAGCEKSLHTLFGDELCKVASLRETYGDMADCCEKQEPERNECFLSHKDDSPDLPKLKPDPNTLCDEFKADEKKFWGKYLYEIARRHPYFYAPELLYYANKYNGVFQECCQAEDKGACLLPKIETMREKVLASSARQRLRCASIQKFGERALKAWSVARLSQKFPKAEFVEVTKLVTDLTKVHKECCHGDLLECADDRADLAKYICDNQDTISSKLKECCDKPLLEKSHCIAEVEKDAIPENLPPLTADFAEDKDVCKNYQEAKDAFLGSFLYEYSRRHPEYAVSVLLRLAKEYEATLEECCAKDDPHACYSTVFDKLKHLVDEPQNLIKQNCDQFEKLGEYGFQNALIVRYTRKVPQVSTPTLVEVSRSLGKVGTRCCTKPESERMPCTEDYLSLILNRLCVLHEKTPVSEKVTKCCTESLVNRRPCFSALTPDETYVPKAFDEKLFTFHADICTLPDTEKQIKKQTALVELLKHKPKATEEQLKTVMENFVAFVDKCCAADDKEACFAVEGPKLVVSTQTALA
Chain of UniProt P53341 (whole entry, looked up): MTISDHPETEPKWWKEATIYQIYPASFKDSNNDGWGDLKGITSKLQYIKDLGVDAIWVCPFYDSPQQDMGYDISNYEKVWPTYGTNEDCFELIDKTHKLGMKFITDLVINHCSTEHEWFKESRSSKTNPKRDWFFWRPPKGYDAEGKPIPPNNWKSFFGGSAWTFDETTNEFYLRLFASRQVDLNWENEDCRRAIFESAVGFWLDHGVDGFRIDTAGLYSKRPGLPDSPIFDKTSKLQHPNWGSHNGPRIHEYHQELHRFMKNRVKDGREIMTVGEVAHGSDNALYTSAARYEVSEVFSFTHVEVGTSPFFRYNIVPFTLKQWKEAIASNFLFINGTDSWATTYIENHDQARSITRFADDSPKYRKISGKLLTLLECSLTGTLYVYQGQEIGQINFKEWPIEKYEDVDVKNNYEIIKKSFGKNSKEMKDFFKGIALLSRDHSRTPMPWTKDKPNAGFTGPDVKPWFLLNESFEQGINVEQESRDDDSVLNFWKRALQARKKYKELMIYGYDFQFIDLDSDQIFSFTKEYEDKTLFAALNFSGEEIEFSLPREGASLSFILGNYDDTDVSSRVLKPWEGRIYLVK
Chain of UniProt P30291 (whole entry, looked up): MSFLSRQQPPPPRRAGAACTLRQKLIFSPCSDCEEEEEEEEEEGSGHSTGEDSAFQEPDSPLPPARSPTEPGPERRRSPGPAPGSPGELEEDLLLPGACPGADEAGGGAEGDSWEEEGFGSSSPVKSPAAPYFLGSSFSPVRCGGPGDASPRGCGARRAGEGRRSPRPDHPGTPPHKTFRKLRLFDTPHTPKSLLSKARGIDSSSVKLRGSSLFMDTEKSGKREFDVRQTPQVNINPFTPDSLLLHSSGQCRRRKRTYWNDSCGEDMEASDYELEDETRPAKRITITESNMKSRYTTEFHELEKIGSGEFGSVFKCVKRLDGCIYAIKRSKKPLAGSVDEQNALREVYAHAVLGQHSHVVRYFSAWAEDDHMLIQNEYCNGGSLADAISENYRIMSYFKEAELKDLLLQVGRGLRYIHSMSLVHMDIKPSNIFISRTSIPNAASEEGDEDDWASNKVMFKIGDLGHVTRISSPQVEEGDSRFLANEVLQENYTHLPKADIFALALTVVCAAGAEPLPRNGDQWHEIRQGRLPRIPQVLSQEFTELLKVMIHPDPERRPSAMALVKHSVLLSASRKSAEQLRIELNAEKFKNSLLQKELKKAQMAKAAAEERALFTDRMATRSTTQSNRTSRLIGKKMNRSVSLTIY
Chain of UniProt Q96SW2 (whole entry, looked up): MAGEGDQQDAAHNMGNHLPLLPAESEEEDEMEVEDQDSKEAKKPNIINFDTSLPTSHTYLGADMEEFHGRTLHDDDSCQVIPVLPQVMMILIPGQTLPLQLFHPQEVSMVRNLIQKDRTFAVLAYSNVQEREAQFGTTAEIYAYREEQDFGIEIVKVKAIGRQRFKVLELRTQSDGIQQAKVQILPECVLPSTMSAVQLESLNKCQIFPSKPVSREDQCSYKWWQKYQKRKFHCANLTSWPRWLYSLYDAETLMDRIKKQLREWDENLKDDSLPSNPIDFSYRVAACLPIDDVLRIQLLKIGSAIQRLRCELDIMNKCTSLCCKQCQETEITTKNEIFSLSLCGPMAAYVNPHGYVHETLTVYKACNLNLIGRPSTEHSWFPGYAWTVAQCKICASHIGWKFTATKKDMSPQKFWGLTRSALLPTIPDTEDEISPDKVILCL

SMILES	tested on	test	system	setting	how to read	quantity	value
O=C(COCC(F)F)Nc1ccc(C2CCCCC2)cc1		hepatocyte stability	cryopreserved mouse hepatocytes	1 µM		hepatic clearance	84 mL/min/kg
CC[C@H](C)[C@H](NC(=O)[C@H](Cc1ccccc1)NC(=O)[C@H](CCC(=O)O)NC(=O)[C@H](CCCNC(=N)N)NC(=O)[C@H](C)NC(=O)[C@H](C)NC(=O)[C@H](CCC(N)=O)NC(=O)[C@H](CCC(=O)O)NC(=O)[C@H](CCC(=O)O)NC(=O)[C@H](CC(C)C)NC(=O)[C@H](Cc1ccc(O)cc1)NC(=O)[C@H](CO)NC(=O)[C@H](CO)NC(=O)[C@@H](NC(=O)[C@H](CC(=O)O)NC(=O)[C@H](CO)NC(=O)[C@@H](NC(=O)[C@H](Cc1ccccc1)NC(=O)[C@@H](NC(=O)CNC(=O)[C@H](CCC(=O)O)NC(=O)[C@H](C)NC(=O)CCc1cnc[nH]1)[C@@H](C)O)[C@@H](C)O)C(C)C)C(=O)N[C@@H](C)C(=O)N[C@@H](Cc1c[nH]c2ccccc12)C(=O)N[C@@H](CC(C)C)C(=O)N[C@H](C(=O)N[C@@H](CCCNC(=N)N)C(=O)NCC(=O)N[C@@H](CCCNC(=N)N)C(=O)N[C@@H](CCCCNC(=O)COCCOCCNC(=O)COCCOCCNC(=O)CC[C@H](NC(=O)CCCCCCCCCCCCCCCCC(=O)O)C(=O)O)C(=O)NCC(=O)NCC(=O)N[C@@H](CO)C(=O)N[C@@H](CCCCNc1c(NCCCCCN(O)C(=O)CCC(=O)NCCCCCN(O)C(=O)CCC(=O)NCCCCCN(O)C(C)=O)c(=O)c1=O)C(=O)NCC(=O)NCC(=O)N[C@@H](CO)C(=O)N[C@@H](CCCCNc1c(NCCCCCN(O)C(=O)CCC(=O)NCCCCCN(O)C(=O)CCC(=O)NCCCCCN(O)C(C)=O)c(=O)c1=O)C(=O)NCC(=O)NCC(=O)N[C@@H](CO)C(=O)N[C@@H](CCCCNc1c(NCCCCCN(O)C(=O)CCC(=O)NCCCCCN(O)C(=O)CCC(=O)NCCCCCN(O)C(C)=O)c(=O)c1=O)C(=O)O)C(C)C	GLP1R	agonist, CRE luciferase reporter	BHK cells	Zr-loaded DFO conjugate, with: 0% HSA	reference: parent peptide	fold potency loss	11.1
CN1CCN(C(=O)c2ccc([C@H]3[C@@H](F)[C@@H](F)C[C@@H](F)[C@H]3F)cc2)CC1=O		hepatocyte stability	cryopreserved rat hepatocytes	1 µM		hepatic clearance	10 mL/min/kg
Nc1ncnc2c1ncn2[C@@H]1O[C@H](COP(=O)(O)OP(=O)(O)OP(=O)(O)O)[C@@H](O)[C@H]1O	T1, ssDNA, aptamer	ITC				Kd	701 nM
NCC[C@H](O)C(=O)N[C@@H]1C[C@H](N)[C@@H](O[C@H]2O[C@H](CN)[C@@H](O)[C@H](O)[C@H]2O)[C@H](O)[C@H]1O[C@H]1O[C@H](CO)[C@@H](O)[C@H](N)[C@H]1O	Albumin (ALB, Bos taurus, UniProt P02769)	tryptophan fluorescence quenching		10 to 60 µM, 283 K		Stern-Volmer quenching constant	3.96 10³ M⁻¹
CC(C)[C@H](NC(=O)c1cc(-c2cnn3cc(-c4ccc(OCCN5CCCCC5)cc4)cnc23)cs1)C(F)(F)F	PLK2 (human)	radiometric kinase		15 nM	reference: PLK2 over ULK1	relative inhibition	0.0455
Nc1ncnc2c1ncn2[C@@H]1O[C@H](COP(=O)(O)OP(=O)(O)OP(=O)(O)O)[C@@H](O)[C@H]1O	P2X purinoceptor 7 (P2rx7, Rattus norvegicus, UniProt Q64663)	ion current, two-electrode voltage clamp	Xenopus laevis oocytes	1000 µM		normalized current	1 and 0.98 and 0.96
CCS(=O)(=O)N1CC(CC#N)(n2cc(-c3ncnc4[nH]ccc34)cn2)C1	ORM1 (Homo sapiens, UniProt P02763)	van't Hoff		concentration not given, 293-308 K		binding entropy change	23.9 J/mol/K
CC[C@H](C)[C@H](NC(=O)[C@H](Cc1ccccc1)NC(=O)[C@H](CCC(=O)O)NC(=O)[C@H](CCCNC(=N)N)NC(=O)[C@H](C)NC(=O)[C@H](C)NC(=O)[C@H](CCC(N)=O)NC(=O)[C@H](CCC(=O)O)NC(=O)[C@H](CCC(=O)O)NC(=O)[C@H](CC(C)C)NC(=O)[C@H](Cc1ccc(O)cc1)NC(=O)[C@H](CO)NC(=O)[C@H](CO)NC(=O)[C@@H](NC(=O)[C@H](CC(=O)O)NC(=O)[C@H](CO)NC(=O)[C@@H](NC(=O)[C@H](Cc1ccccc1)NC(=O)[C@@H](NC(=O)CNC(=O)[C@H](CCC(=O)O)NC(=O)[C@H](C)NC(=O)CCc1cnc[nH]1)[C@@H](C)O)[C@@H](C)O)C(C)C)C(=O)N[C@@H](C)C(=O)N[C@@H](Cc1c[nH]c2ccccc12)C(=O)N[C@@H](CC(C)C)C(=O)N[C@H](C(=O)N[C@@H](CCCCNC(=O)COCCOCCNC(=O)COCCOCCNC(=O)CC[C@H](NC(=O)CCCCCCCCCCCCCCCCC(=O)O)C(=O)O)C(=O)NCC(=O)N[C@@H](CCCNC(=N)N)C(=O)N[C@@H](CCCCNc1c(NCCCCCN(O)C(=O)CCC(=O)NCCCCCN(O)C(=O)CCC(=O)NCCCCCN(O)C(C)=O)c(=O)c1=O)C(=O)NCC(=O)NCC(=O)N[C@@H](CO)C(=O)N[C@@H](CCCCNc1c(NCCCCCN(O)C(=O)CCC(=O)NCCCCCN(O)C(=O)CCC(=O)NCCCCCN(O)C(C)=O)c(=O)c1=O)C(=O)O)C(C)C	GLP1R	agonist, CRE luciferase reporter	BHK cells	metal-free DFO conjugate, with: 0% HSA	reference: parent peptide	fold potency loss	3.9
C=CCn1c(=O)c2cnc(Nc3ccc(N4CCN(CCCNc5cccc6c5C(=O)N(C5CCC(=O)NC5=O)C6=O)CC4)cc3)nc2n1-c1cccc(C(C)(C)O)n1 (centres unmarked)	WEE1/CRBN (Homo sapiens, UniProt P30291+Q96SW2)	formation, ternary complex, WEE1-CRBN, degrader, TR-FRET				concentration at peak FRET signal	~300 nM
CC[C@H](C)[C@@H]1NC(=O)[C@H]([C@@H](C)CC)NC(=O)[C@@H](Cc2ccc(O)cc2)NC(=O)CSC[C@@H](C(N)=O)NC(=O)[C@H](CCCNC(=N)N)NC(=O)[C@H](CCCCN)NC(=O)[C@H](CC(C)C)NC(=O)[C@H](CO)NC(=O)[C@H](CO)NC(=O)[C@H](CC(C)C)NC(=O)[C@H](Cc2ccccc2)NC(=O)[C@H](C(C)C)NC(=O)CNC(=O)[C@H](CC(C)C)NC(=O)[C@@H]2CCCN2C(=O)[C@H]([C@@H](C)O)NC(=O)[C@H](CC(=O)O)NC1=O	Vacuolar protein sorting-associated protein 29 (VPS29, Homo sapiens, UniProt Q9UBQ0)	binding, ITC		25 °C, protein alone		-TΔS	4.6 ± 0.3 kcal/mol
CN(CCOc1ccc(CC2SC(=O)NC2=O)cc1)c1ccccn1 (centres unmarked)	Ppara (Mus musculus, UniProt P23204, F272I)	intrinsic fluorescence quenching		concentration not given		binding	no binding
C=CC(=O)N1CCC[C@@H](n2nc(-c3ccc(Oc4ccccc4)cc3)c3c(N)ncnc32)C1	EPHB1 (Homo sapiens, UniProt P54762)			10 µM		remaining activity	129%
CC[C@@H](C)[C@@H](NC(=O)[C@@H](Cc1ccc(O)cc1)NC(=O)[C@H]1CCCN1C(=O)[C@@H](CCCNC(=N)N)NC(=O)[C@H](N)Cc1c[nH]cn1)C(=O)N[C@H](C)C(=O)N[C@H](Cc1c[nH]cn1)C(=O)N[C@H](CCCNC(=N)N)C(=O)N[C@@H](C(=O)N[C@H](Cc1ccc(O)cc1)C(=O)N[C@H](CO)C(=O)N[C@H](Cc1ccccc1)C(N)=O)C(C)C	Transferrin receptor protein 1 (Tfrc, Mus musculus, UniProt Q62351)	flow cytometry	RAW264.7	24 h, pH 6, replicate 1, unit not given	reference: 0 h	surface TFRC expression	0.978
O=C(CO)NC1C(O)CC(OC2C(O)C(CO)OC(Oc3ccc([N+](=O)[O-])cc3)C2O)(C(=O)O)OC1C(O)C(O)CO (centres unmarked)	Sialidase-2 (Homo sapiens, UniProt Q9Y3R4)	substrate		0.3 mM, 30 min, pH 5.0, 37 °C		sialic acid release	83%
O=C(COP(=O)(O)O)[C@@H](O)[C@H](O)[C@H](O)COP(=O)(O)O	Adenine phosphoribosyltransferase (Homo sapiens, UniProt P07741)	thermal proteome profiling, measured: APRT	HepG2 cell lysate	concentration not given, 57 over 37 °C, mean	reference: compound over control	thermal stability ratio	0.519
COc1cc(O)c2c(c1)oc(=O)c1c3cc(O)c(O)cc3oc21	MAL12 (Saccharomyces cerevisiae S288c, UniProt P53341)	fluorescence quenching		concentration not given, 310 K		number of binding sites	0.97
COc1cc(Cl)c(C(=O)N[C@@H](CN[C@H]2CC[C@@H](N)CC2)Cc2ccc(C#N)cc2)cc1-c1ccc(CN[C@H](C)c2ccc(C)cc2)o1	ATPase family AAA domain-containing protein 2, bromodomain (ATAD2, Homo sapiens, UniProt Q6PL18)	ITC		37 °C		ΔH	-2.16 kcal/mol
Oc1c(Br)cc(Oc2ccc(Br)cc2Br)cc1Br	SULT1B1 (Homo sapiens, UniProt O43704)	sulfonation, substrate				Vmax/Km	548 µL/min/mg
CC[C@H](C)[C@H](NC(=O)[C@H](Cc1ccccc1)NC(=O)[C@H](CCC(=O)O)NC(=O)[C@H](CCCNC(=N)N)NC(=O)[C@H](C)NC(=O)[C@H](C)NC(=O)[C@H](CCC(N)=O)NC(=O)[C@H](CCC(=O)O)NC(=O)[C@H](CCC(=O)O)NC(=O)[C@H](CC(C)C)NC(=O)[C@H](Cc1ccc(O)cc1)NC(=O)[C@H](CO)NC(=O)[C@H](CO)NC(=O)[C@@H](NC(=O)[C@H](CC(=O)O)NC(=O)[C@H](CO)NC(=O)[C@@H](NC(=O)[C@H](Cc1ccccc1)NC(=O)[C@@H](NC(=O)CNC(=O)[C@H](CCC(=O)O)NC(=O)[C@H](C)NC(=O)CCc1cnc[nH]1)[C@@H](C)O)[C@@H](C)O)C(C)C)C(=O)N[C@@H](C)C(=O)N[C@@H](Cc1c[nH]c2ccccc12)C(=O)N[C@@H](CC(C)C)C(=O)N[C@H](C(=O)N[C@@H](CCCCNc1c(NCCCCCN(O)C(=O)CCC(=O)NCCCCCN(O)C(=O)CCC(=O)NCCCCCN(O)C(C)=O)c(=O)c1=O)C(=O)NCC(=O)N[C@@H](CCCNC(=N)N)C(=O)N[C@@H](CCCCNc1c(NCCCCCN(O)C(=O)CCC(=O)NCCCCCN(O)C(=O)CCC(=O)NCCCCCN(O)C(C)=O)c(=O)c1=O)C(=O)NCC(=O)NCC(=O)N[C@@H](CO)C(=O)N[C@@H](CCCCNC(=O)COCCOCCNC(=O)COCCOCCNC(=O)CC[C@H](NC(=O)CCCCCCCCCCCCCCCCC(=O)O)C(=O)O)C(=O)O)C(C)C	GLP1R	agonist, CRE luciferase reporter	BHK cells	Zr-loaded DFO conjugate, with: 1% HSA	reference: parent peptide	fold potency loss	2

A few entries again:
SMILES	tested on	test	system	setting	how to read	quantity	value
CCS(=O)(=O)N1CC(CC#N)(n2cc(-c3ncnc4[nH]ccc34)cn2)C1	ORM1 (Homo sapiens, UniProt P02763)	van't Hoff		concentration not given, 293-308 K		binding entropy change	23.9 J/mol/K
COc1cc(O)c2c(c1)oc(=O)c1c3cc(O)c(O)cc3oc21	MAL12 (Saccharomyces cerevisiae S288c, UniProt P53341)	fluorescence quenching		concentration not given, 310 K		number of binding sites	0.97
CC[C@H](C)[C@H](NC(=O)[C@H](Cc1ccccc1)NC(=O)[C@H](CCC(=O)O)NC(=O)[C@H](CCCNC(=N)N)NC(=O)[C@H](C)NC(=O)[C@H](C)NC(=O)[C@H](CCC(N)=O)NC(=O)[C@H](CCC(=O)O)NC(=O)[C@H](CCC(=O)O)NC(=O)[C@H](CC(C)C)NC(=O)[C@H](Cc1ccc(O)cc1)NC(=O)[C@H](CO)NC(=O)[C@H](CO)NC(=O)[C@@H](NC(=O)[C@H](CC(=O)O)NC(=O)[C@H](CO)NC(=O)[C@@H](NC(=O)[C@H](Cc1ccccc1)NC(=O)[C@@H](NC(=O)CNC(=O)[C@H](CCC(=O)O)NC(=O)[C@H](C)NC(=O)CCc1cnc[nH]1)[C@@H](C)O)[C@@H](C)O)C(C)C)C(=O)N[C@@H](C)C(=O)N[C@@H](Cc1c[nH]c2ccccc12)C(=O)N[C@@H](CC(C)C)C(=O)N[C@H](C(=O)N[C@@H](CCCNC(=N)N)C(=O)NCC(=O)N[C@@H](CCCNC(=N)N)C(=O)N[C@@H](CCCCNC(=O)COCCOCCNC(=O)COCCOCCNC(=O)CC[C@H](NC(=O)CCCCCCCCCCCCCCCCC(=O)O)C(=O)O)C(=O)NCC(=O)NCC(=O)N[C@@H](CO)C(=O)N[C@@H](CCCCNc1c(NCCCCCN(O)C(=O)CCC(=O)NCCCCCN(O)C(=O)CCC(=O)NCCCCCN(O)C(C)=O)c(=O)c1=O)C(=O)NCC(=O)NCC(=O)N[C@@H](CO)C(=O)N[C@@H](CCCCNc1c(NCCCCCN(O)C(=O)CCC(=O)NCCCCCN(O)C(=O)CCC(=O)NCCCCCN(O)C(C)=O)c(=O)c1=O)C(=O)NCC(=O)NCC(=O)N[C@@H](CO)C(=O)N[C@@H](CCCCNc1c(NCCCCCN(O)C(=O)CCC(=O)NCCCCCN(O)C(=O)CCC(=O)NCCCCCN(O)C(C)=O)c(=O)c1=O)C(=O)O)C(C)C	GLP1R	agonist, CRE luciferase reporter	BHK cells	Zr-loaded DFO conjugate, with: 0% HSA	reference: parent peptide	fold potency loss	11.1
